# Results from different studies.
# Lines come from different studies, so protocols differ. Values joined by “and” are separate records of one study, mostly repeats; a detail may differ. Numbers after ± are the reported error.
Structure (SMILES),assay,system,conditions,how to read,measurement,result
CC[C@H](C)[C@H](NC(=O)[C@H](CCCCN)NC(=O)CNC(=O)[C@H](CC(C)C)NC(=O)[C@H](Cc1ccccc1)NC(=O)[C@H](CCCCN)NC(=O)[C@H](CO)NC(=O)[C@H](Cc1ccccc1)NC(=O)[C@H](Cc1c[nH]c2ccccc12)NC(=O)[C@H](CCC(N)=O)NC(=O)[C@@H](NC(=O)[C@H](Cc1ccccc1)NC(=O)CCCCCNC(=O)CN1CCN(CC(=O)O)CCN(CC(=O)O)CCN(CC(=O)O)CC1)C(C)C)C(=O)N[C@@H](CCC(=O)O)C(=O)N1CCC[C@H]1C(=O)N[C@@H](CC(=O)O)C(=O)N[C@H](C(=O)N[C@@H](CO)C(=O)N[C@@H](CCC(N)=O)C(=O)N[C@H](C(=O)N[C@@H](CCC(N)=O)C(=O)N[C@@H](CC(=O)O)C(=O)N1CCC[C@H]1C(=O)N[C@@H](CC(N)=O)C(=O)N[C@@H](CC(=O)O)C(=O)N[C@@H](CCC(N)=O)C(=O)N[C@@H](Cc1ccc(O)cc1)C(=O)N[C@@H](CCC(=O)O)C(=O)N1CCC[C@H]1C(=O)N[C@@H](Cc1ccccc1)C(=O)O)C(C)C)C(C)C [copper-64 labelled],dynamic PET,"mouse both sexes, CT26 tumour, untreated, tumour","intravenous, 100 µCi/mouse, 330 s",,SUVmean,0.88 SUV
COc1cnc2cccc(N3CCc4c(cc(Cn5ccnc5)cc4-c4cn(C)nc4C(F)(F)F)C3=O)c2c1,,"BALB/c nude mice, MV4-11 xenograft","intraperitoneal, 100 mg/kg, day 28",,body weight,23.5 g and 23.6 g and 24.4 g and 23.2 g and 23.8 g
COc1cc2ncnc(Oc3ccc(Nc4nccc5[nH]cc(-c6ccc(F)cc6)c(=O)c45)cc3F)c2cc1OC,,"rat, Sprague-Dawley","oral, 20 mg/kg/day, 28-day repeat dose, MTD",,AUC,12900 µg·h/mL
CC(C)Oc1c(NC(=O)c2ccc(NC(=O)[C@H](CC(N)=O)NC(=O)c3ccc(/N=N/c4ccccc4)cc3)cc2)ccc(C(=O)Nc2ccc(C(=O)O)cc2)c1O,absorbance,DMSO,"40 °C, PSS to ground state relaxation",,thermal half-life,6.2 h
CCCCCCCCCCCCCCCC(=O)N[C@@H](CCC(=O)NCCOCCOCCC(=O)NCCOCCOCCC(=O)NCCCC[C@H](NC(=O)[C@H](CC(=O)O)NC(=O)[C@H](CC(C)C)NC(=O)[C@H](Cc1ccc(O)cc1)NC(=O)[C@H](CCCCN)NC(=O)[C@H](CO)NC(=O)[C@H](Cc1ccc(O)cc1)NC(=O)[C@H](CC(=O)O)NC(=O)[C@H](CO)NC(=O)[C@@H](NC(=O)[C@H](Cc1ccccc1)NC(=O)[C@@H](NC(=O)CNC(=O)[C@H](CCC(N)=O)NC(=O)[C@@H](CO)NC(=O)[C@@H](N)Cc1c[nH]cn1)[C@@H](C)O)[C@@H](C)O)C(=O)N[C@@H](CCCNC(=N)N)C(=O)N[C@@H](CCCNC(=N)N)C(=O)N[C@@H](C)C(=O)N[C@@H](CCC(N)=O)C(=O)N[C@@H](CC(=O)O)C(=O)N[C@@H](Cc1ccccc1)C(=O)N[C@H](C(=O)N[C@@H](CCC(N)=O)C(=O)N[C@@H](Cc1c[nH]c2ccccc12)C(=O)N[C@@H](CC(C)C)C(=O)N[C@@H](CC(C)C)C(=O)N[C@@H](CC(N)=O)C(=O)N[C@H](C(=O)NCC(=O)NCC(=O)N1CCC[C@H]1C(=O)N[C@@H](CO)C(=O)N[C@@H](CO)C(=O)NCC(=O)N[C@@H](C)C(=O)N1CCC[C@H]1C(=O)N1CCC[C@H]1C(=O)N1CCC[C@H]1C(=O)N[C@@H](CO)C(N)=O)[C@@H](C)O)C(C)C)C(=O)O,,"rhesus monkey, female, plasma","subcutaneous, 20 µg/kg, day 1, toxicokinetics, mean",,Cmax,23.7 ng/mL
CN1Cc2cc(Cl)ccc2-n2c(nnc2C2CCN(c3cccc(F)n3)CC2)C1,,"Sprague-Dawley rat male, pituitary","intravenous, 0.03 mg/kg",,AUC,0.0189 µg·h/mL
C1N2CN3CN1CP(C2)C3.COc1ccc(C([O-])=CC(=O)c2ccc(C(C)(C)C)cc2)cc1.Cc1ccc(C(C)C)cc1.[Ru+2],,zebrafish larvae,"10 µM, 96 h, dark",reference: normal,viability,100%
CC(=O)CCC1C(=O)NC(C(C)C)C(=O)NC(Cc2cc(O)cc(F)c2)C(=O)N2CCCC(N2)C(=O)OC(C(C)=CC=CC(=O)N2CCCCO2)CC=CC=CC(O)C(C)C1O (stereo not drawn),,"male Sprague-Dawley rat, plasma","oral, 5 mg/kg",,AUC,0.142 µg·h/mL
C/C(=N\OCCCN1CCCCC1)c1ccc(C(F)(F)F)cc1,,"mouse, plasma","oral, 50 mg/kg twice daily, day 1",,Cmax,826 ± 155 ng/mL
CCOP(=O)(CNC(=O)CN1CCN(CC(=O)NCP(=O)(OCC)OCC)CCN(CC(=O)NCP(=O)(OCC)OCC)CCN(CC(=O)NCP(=O)(OCC)OCC)CC1)OCC.[177Lu+3],,octanol/water,room temperature,,logP,-3.37 ± 0.19
CSCC[C@H](N)C(=O)N[C@@H](C)C(=O)N[C@@H](Cc1c[nH]c2ccccc12)C(=O)N[C@@H](Cc1c[nH]cn1)C(=O)N[C@@H](CC(=O)O)C(=O)N[C@@H](CC(=O)O)C(=O)N[C@@H](CCC(=O)O)C(=O)N[C@@H](CCC(=O)O)C(=O)N[C@@H](Cc1ccccc1)C(=O)N[C@@H](C)C(=O)N[C@@H](CCCNC(=N)N)C(=O)N[C@@H](CCCNC(=N)N)C(=O)N[C@@H](CCCNC(=N)N)C(=O)N[C@@H](CCCNC(=N)N)C(=O)NCCCCCC(=O)NCCCCC(NC(=O)CCCCCNC(=O)[C@H](CCCNC(=N)N)NC(=O)[C@H](CCCNC(=N)N)NC(=O)[C@H](CCCNC(=N)N)NC(=O)[C@H](CCCNC(=N)N)NC(=O)[C@H](C)NC(=O)[C@H](Cc1ccccc1)NC(=O)[C@H](CCC(=O)O)NC(=O)[C@H](CCC(=O)O)NC(=O)[C@H](CC(=O)O)NC(=O)[C@H](CC(=O)O)NC(=O)[C@H](Cc1c[nH]cn1)NC(=O)[C@H](Cc1c[nH]c2ccccc12)NC(=O)[C@H](C)NC(=O)[C@@H](N)CCSC)C(=O)NCCCCC(NC(=O)C(CCCCNC(=O)CCCCCNC(=O)[C@H](CCCNC(=N)N)NC(=O)[C@H](CCCNC(=N)N)NC(=O)[C@H](CCCNC(=N)N)NC(=O)[C@H](CCCNC(=N)N)NC(=O)[C@H](C)NC(=O)[C@H](Cc1ccccc1)NC(=O)[C@H](CCC(=O)O)NC(=O)[C@H](CCC(=O)O)NC(=O)[C@H](CC(=O)O)NC(=O)[C@H](CC(=O)O)NC(=O)[C@H](Cc1c[nH]cn1)NC(=O)[C@H](Cc1c[nH]c2ccccc12)NC(=O)[C@H](C)NC(=O)[C@@H](N)CCSC)NC(=O)CCCCCNC(=O)[C@H](CCCNC(=N)N)NC(=O)[C@H](CCCNC(=N)N)NC(=O)[C@H](CCCNC(=N)N)NC(=O)[C@H](CCCNC(=N)N)NC(=O)[C@H](C)NC(=O)[C@H](Cc1ccccc1)NC(=O)[C@H](CCC(=O)O)NC(=O)[C@H](CCC(=O)O)NC(=O)[C@H](CC(=O)O)NC(=O)[C@H](CC(=O)O)NC(=O)[C@H](Cc1c[nH]cn1)NC(=O)[C@H](Cc1c[nH]c2ccccc12)NC(=O)[C@H](C)NC(=O)[C@@H](N)CCSC)C(N)=O (stereo partly drawn),,"C57BL/6 mouse female, heart","dose not given, 3 h",reference: total,tissue distribution,1.03% and 0.73% and 0.84%
O=C1NC2(CC2)COc2ncc(F)cc2[C@H]2COCCN2c2ccn3ncc1c3n2,,"Sprague-Dawley rat, male, heart","oral, 10 mg/kg/day, 4 weeks dosing, end of recovery",,organ-to-body weight ratio,0.295 ± 0.005%

# Repeated from above:
Structure (SMILES),assay,system,conditions,how to read,measurement,result
CN1Cc2cc(Cl)ccc2-n2c(nnc2C2CCN(c3cccc(F)n3)CC2)C1,,"Sprague-Dawley rat male, pituitary","intravenous, 0.03 mg/kg",,AUC,0.0189 µg·h/mL
